Assay results of several laboratories.
A part holds a random share of what one study measured.

Sample 1
Target: Ras GTPase-activating protein-binding protein 1, full length (G3BP1, Homo sapiens, UniProt Q13283)
Chain of UniProt Q13283 (whole entry, looked up): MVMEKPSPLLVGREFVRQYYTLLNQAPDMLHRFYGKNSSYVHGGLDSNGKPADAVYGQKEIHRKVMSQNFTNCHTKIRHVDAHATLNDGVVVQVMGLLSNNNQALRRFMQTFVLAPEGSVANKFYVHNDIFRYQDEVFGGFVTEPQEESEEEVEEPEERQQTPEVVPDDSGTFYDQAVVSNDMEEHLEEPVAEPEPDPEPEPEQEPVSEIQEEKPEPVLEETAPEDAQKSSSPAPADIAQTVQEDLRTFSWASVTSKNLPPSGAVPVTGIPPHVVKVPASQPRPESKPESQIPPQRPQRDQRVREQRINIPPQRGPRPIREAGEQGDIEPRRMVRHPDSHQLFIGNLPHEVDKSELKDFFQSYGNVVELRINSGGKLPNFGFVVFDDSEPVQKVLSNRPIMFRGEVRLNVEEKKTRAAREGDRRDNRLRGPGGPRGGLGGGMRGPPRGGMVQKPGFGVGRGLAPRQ
Technique: RNA Bind-n-Seq
Molecule type: RNA
Sample: in vitro
Tested at: 200 nM
Setting: whole 134-nt RNA, ends assumed
With: 150 mM KCl
Reference: input library
Direction: higher = stronger binding
Measurement: log2 enrichment
Shared flanks, not repeated: GGGAGUUCUACAGUCCGACGAUC … UGGAAUUCUCGGGUGUCAAGG
AGUCCUGUGCUACACAUCGUAUGUACCGAAUCGGUUUUUGGUUUUUGGGUUUUUGGGAAAGUAUUAUGUUACGCCGUUCGGAUCUGCACU: -1.23
AGUCCUGUGCUACACAUCGUAUGUACCGAAUCGGGAAAGGGUUUGGGAAAAAAAGGGAAAGUAUUAUGUUACGCCGUUCGGAUCUGCACU: -0.585
CACAGACAACACGCACCCACACAGACACAGAGGGAAGGGGUUGGCAUGGGGACAGGGUGCACAGCAGGGCGGGGUAGGACCCCAGCCCCU: 1.84
UCCUGUGCUACACAUCGUAUGUACCGAAUCGGAAAAAAAGGAAAAAAAGGAAAAAAAGGAAAGUAUUAUGUUACGCCGUUCGGAUCUGCA: -0.567
GUCCUGUGCUACACAUCGUAUGUACCGAAUCGGGCCCCCGGCCCCCGGGCCCCCGGGGAAAGUAUUAUGUUACGCCGUUCGGAUCUGCAC: -0.675
CAAGUCCUGUGCUACACAUCGUAUGUACCGAAUCGGGGAGGGGAGGGGAAAGGGGAAAGUAUUAUGUUACGCCGUUCGGAUCUGCACUUC: 1.4
CAAGUCCUGUGCUACACAUCGUAUGUACCGAAUCGGGGUUUGGGGUGGGGUGGGGAAAGUAUUAUGUUACGCCGUUCGGAUCUGCACUUC: 1.12
GCAGGAAGUAAAAACAAAUGGAAAUGCGUCGGAUAGUGGCAGGGGUGGGGGUUGCUAAGGAAAGGGUGGGAUGGGAGUGGGUAAAGAGUU: 0.617
UGUGCUACACAUCGUAUGUACCGAAUCGGGCCCCCCCGGGGCCCCCCCGGGGCCCCCCCGGGAAAGUAUUAUGUUACGCCGUUCGGAUCU: -2.2
UGGCCCUGAUGGCAUGCGGGGAGGAAGAGGUGGCCUCAUGGAUCGUGGUGGUCCCGGUGGAAUGUUCAGAGGUGGCCGUGGUGGAGACAG: 0.202

Sample 2
Target: Cyclic AMP-responsive element-binding protein 1, full length (CREB1, Homo sapiens, UniProt P16220, residues 1-327)
Chain of UniProt P16220 (whole entry, looked up): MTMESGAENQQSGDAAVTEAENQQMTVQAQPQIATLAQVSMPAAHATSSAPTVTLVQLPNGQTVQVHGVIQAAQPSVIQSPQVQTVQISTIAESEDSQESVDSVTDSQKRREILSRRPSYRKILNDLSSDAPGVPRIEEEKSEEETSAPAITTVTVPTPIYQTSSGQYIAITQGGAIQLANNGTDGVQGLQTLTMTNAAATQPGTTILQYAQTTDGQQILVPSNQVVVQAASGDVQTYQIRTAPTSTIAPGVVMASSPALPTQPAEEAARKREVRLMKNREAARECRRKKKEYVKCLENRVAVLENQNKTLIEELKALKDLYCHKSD
Technique: protein-binding microarray
Molecule type: hairpin DNA
Sample: in vitro
Tested at: not given
Setting: whole hairpin DNA, median over replicate spots
Reference: not given
Direction: higher = stronger binding
Measurement: median fluorescence
GAGGCCGGCTGACGTCAGCCTCCTGGCTGACGTCAGCCGGCCTCACACTC (5mC at 37): 12700 a.u.
GAGGCCCGCTGACGTCAGCCTCCTGGCTGACGTCAGCGGGCCTCACACTC (5mC at 37): 14000 a.u.
GAGGCCGGATCACGTCAGCCTCCTGGCTGACGTGATCCGGCCTCACACTC (5mC at 11): 4860 a.u.
GAGGCCGACAACGTCGTGCCTCCTGGCACGACGTTGTCGGCCTCACACTC (5mC at 9 15 29): 4130 a.u.
GAGGCCGGGTGACGTCAGCCTCCTGGCTGACGTCACCCGGCCTCACACTC (5mC at 36): 21400 a.u.
GAGGCCGCGTGACGTCAGCCTCCTGGCTGACGTCACGCGGCCTCACACTC: 24000 a.u.
GAGGCCGGCTCGCGTCAGCCTCCTGGCTGACGCGAGCCGGCCTCACACTC (5mC at 11): 3430 a.u.
GAGGCCGGCTGACGACAGCCTCCTGGCTGTCGTCAGCCGGCCTCACACTC: 3860 a.u.
GAGGCCGACCGCGTCGTGCCTCCTGGCACGACGCGGTCGGCCTCACACTC (5mC at 9 15 29 34): 4410 a.u.
GAGGCCGACCACGTCGTGCCTCCTGGCACGACGTGGTCGGCCTCACACTC (5mC at 9 10 15 29): 4210 a.u.
GAGGCCGGCTGACGTTAGCCTCCTGGCTAACGTCAGCCGGCCTCACACTC: 4400 a.u.
GAGGCCGGCCGACGTCAGCCTCCTGGCTGACGTCGGCCGGCCTCACACTC: 5040 a.u.
GAGGCCGGATGACGTAAGCCTCCTGGCTTACGTCATCCGGCCTCACACTC: 18200 a.u.
GAGGCCGGCTCGCGTCAGCCTCCTGGCTGACGCGAGCCGGCCTCACACTC (5mC at 33): 4590 a.u.
GAGGCCGGATGACGTCGGCCTCCTGGCCGACGTCATCCGGCCTCACACTC (5mC at 16 28): 10600 a.u.
GAGGCCGCGTGACGTCAGCCTCCTGGCTGACGTCACGCGGCCTCACACTC (5mC at 8 36): 21400 a.u.
GAGGCCGAGGACGTCGTGCCTCCTGGCACGACGTCCTCGGCCTCACACTC (5mC at 15 29 35): 3130 a.u.
GAGGCCGGATGCGGTCAGCCTCCTGGCTGACCGCATCCGGCCTCACACTC: 2820 a.u.
GAGGCCGGCTCGCGTCAGCCTCCTGGCTGACGCGAGCCGGCCTCACACTC (5mC at 11 33): 4830 a.u.
GAGGCCGGCTGCCGTCAGCCTCCTGGCTGACGGCAGCCGGCCTCACACTC (5mC at 12): 2910 a.u.
GAGGCCGTCGACGTCGTGCCTCCTGGCACGACGTCGACGGCCTCACACTC (5mC at 9 15 29 35): 3840 a.u.
GAGGCCGACGACGGCGTGCCTCCTGGCACGCCGTCGTCGGCCTCACACTC (5mC at 9 15 29 31 35): 3190 a.u.
GAGGCCGGCTGACGTCGGCCTCCTGGCCGACGTCAGCCGGCCTCACACTC (5mC at 16): 4110 a.u.
GAGGCCGGATGACGTCGGCCTCCTGGCCGACGTCATCCGGCCTCACACTC: 10100 a.u.
GAGGCCGGCTGACCTCAGCCTCCTGGCTGAGGTCAGCCGGCCTCACACTC: 2610 a.u.

Sample 3
Target: RNA binding protein fox-1 homolog 2, RRM domain, GST-SBP tag (RBFOX2, Homo sapiens, UniProt O43251-10, residues 100-194)
Technique: RNA Bind-n-Seq
Molecule type: RNA
Sample: in vitro
Tested at: 365 nM
Setting: natural RNA segment, single round, ends assumed
Reference: no-protein control
Direction: higher = stronger binding
Measurement: RBNS enrichment (R)
Shared flanks, not repeated: GGGAGUUCUACAGUCCGACGAUC … UGGAAUUCUCGGGUGCCAA
Construct (chain): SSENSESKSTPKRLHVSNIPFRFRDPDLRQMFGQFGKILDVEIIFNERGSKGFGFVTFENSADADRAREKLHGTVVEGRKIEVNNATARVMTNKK
UGUCCUGACCUUUUCAGUCCUACAGAGACGCAUCUGUGGUUCUUUUGUACUUGCCAUAGAUGUAACCUAAAAAGUUUUGGCAUAUUUAGGUCAGCCUAGCGGAACUUUUU: 0.275
UAUAUUGAUUAGAAAAACGUCAAUUGUCUAUUCAAAAAAUUCUAUCUCUGUGAUAGAUUAUAUUUAUCCUAAUCUGUUGAUACCUCUGUUAAUUUGUUUUAAGAGAAUUA: 0.903
GUGCUCCUGCUUCGGCUCUGUUUCGGCUCACAGGUGUGCAUCACUGGGCUUGGAUUUGCAUUACAUUGACCCCAGCCCUGCAGUGGAACCUAAUAAAAGCGCCUGAAGCA: 12.3
GGACCUCCAGGCGGCUCAGUGCUGCCUGCGGCCCAGCUAAGGGGCCUGGCCACUGGGUGCCACCCAGCCUGUGUGCCCUCCCUGGGGCUGAGGAGGCAGGCGGCUGCUAG: 0.27
UUUUAUACAAAUAAAUGUAAAUGUAGUUAAAUGAUACAGUAUUUAAUAAAGUGUUCCUUUUCAAGUGUGUACUUCAUUUUGUUUAACCUGGUAGUAAAACCAAACUUUUG: 0.459
GCCUGGUCUCACCGUGUGCAGCCUUGUGGUUUAUGCUUAAAUGUACAUUUUCCUGCUGGUAAAAGGAGAAACUGAGAGGUGUCCUGCAGACCGGCUGACCACUCCUUUUG: 0.382
UCUUUGCAGCUGUCAGUUGCUCUUUCAACUCUAGGAUCCAUCUUUGGACCAGAAGCCUGGUCUGUGCCUAGGAUGACACUGGCCCCAGAGAUGCUAGAGUCGACUGCACU: 0.203
UGGUGAGAGGAGAAAGGAGCUUAUCCCCCAGACCCUGCUUUAUACCAUUCACAUCCCAGGGCUGUGUCCAGACAGCACAAAACGGCAAGGAGAGCCCAAGCCCCAAUGCC: 0.307
ACCCAUCCAGUGGACUCUGGGGCGCGGCCACAGGGGACGGGAUGAGGAGCGGGAGGGUUCCGCCACUCCAGUUUUCUCCUCUGCUUCUUUGCCUCCCUCAGAUAGAAAAC: 0.557
AUGGCCCAGUAUCCUUGGUUGUGGAUAGGGUCAUCCCUGGCUCCUCACCCAGCACCCAGCUUAACCCUGCCACCCCACACUCCUGGGAGCACUGGGCUGAGGGGGUCUCA: 0.39
UGACAUAGCCUUUGUGCAAAAAAAAAAAAAAAAAAAAAGAAAAAGAAAAAAAGAAAAAUAUAUUGUCCAUACUGUAAAUAAGUGUAUGCUUAUUUAUUUGGGGGGAAAAC: 1.5
GCUUCUGCCUCUCCUGCCCUGAAAAGGAGGAAUGAUUGGGGCCAGCAACUUUGCUCUCCCUGCCGUGCCUCGGUGGUGCUCCUGAAUGUGGCUGACCUGGGCUGCUGGUU: 0.478

Sample 4
Target: Interferon regulatory factor 5, full length, phosphomimetic (IRF5, Homo sapiens, UniProt Q13568-2, residues 1-514, K96S/S451D/S453D/S456D/S462D)
Technique: protein-binding microarray
Molecule type: double-stranded DNA, one strand shown
Sample: in vitro
Tested at: 250 nM
Setting: 60-bp whole probe
With: salmon DNA 0.4 mg/ml
Reference: random background probes
Direction: higher = stronger binding
Measurement: log fluorescence
Shared flanks, not repeated: GCCTAGCAC … GTCTTGATTCGCTTGACGCTGCTG
GCCGGACTGGACTTTCGGGACGTGCTA: 4.29 z-score
TTAGGACTGGACCCTGGGTTAGTGCTA: -0.635 z-score
TCATTTCTTTTTTTCTTACTGTGCTAG: 1.87 z-score
GACGGTCTCTTTCTCCTGACGTGCTAG: 1.12 z-score
TCATTAATGCTTCTGGAACTGTGCTAG: 0.252 z-score
TTCTTTACCACATTCTCTGCGTGCTAG: 0.621 z-score
TTTACTTTCTGAATGCCCTTGTGCTAG: 5.4 z-score
TTAGGTATCGCCACTGGGTTAGTGCTA: 0.865 z-score
GACGGTATCGGGTTTCGGTACGTGCTA: 7.47 z-score
TTAGGTTTCAACACTGGGTTAGTGCTA: 0.872 z-score
GACGGTATCCTTCACCTGACGTGCTAG: 0.136 z-score
TTAGGTATAGGGTTTCGGTTAGTGCTA: 6.3 z-score
TTAGGTTCCGGTTTCGATTAGTGCTAG: 8.69 z-score
AGATACCTTTAACAGTGCCTGTGCTAG: 0.102 z-score
GACAATATCAGTCTCGAGACGTGCTAG: 1.26 z-score
GAGGGTTTCCTACTGCTGACGTGCTAG: -0.297 z-score
TTAGGACTGGACTATTGGTTAGTGCTA: 0.226 z-score
TCAGTTATCCATCTCAAACTGTGCTAG: 0.286 z-score

For quick reference, copied from above (sample 2):
GAGGCCGCGTGACGTCAGCCTCCTGGCTGACGTCACGCGGCCTCACACTC: 24000 a.u.
GAGGCCGGATGCGGTCAGCCTCCTGGCTGACCGCATCCGGCCTCACACTC: 2820 a.u.
GAGGCCGGCTGACGACAGCCTCCTGGCTGTCGTCAGCCGGCCTCACACTC: 3860 a.u.
GAGGCCGGCTCGCGTCAGCCTCCTGGCTGACGCGAGCCGGCCTCACACTC (5mC at 11): 3430 a.u.
GAGGCCGACGACGGCGTGCCTCCTGGCACGCCGTCGTCGGCCTCACACTC (5mC at 9 15 29 31 35): 3190 a.u.
